Experimental data collected from several papers.
Lines come from different studies, so protocols differ. “And” joins repeats or separate records; there may be more than shown. Numbers after ± are the reported error.

CC[C@H](C)[C@H](NC(=O)CN)C(=O)N[C@@H](CCCNC(=N)N)C(=O)N[C@@H](CCCCN)C(=O)N[C@@H](Cc1c[nH]c2ccccc12)C(=O)N[C@@H](Cc1ccccc1)C(=O)N[C@@H](CCCCN)C(=O)N[C@@H](CCCCN)C(=O)N[C@@H](C)C(=O)N[C@@H](C)C(=O)N[C@@H](Cc1c[nH]cn1)C(=O)N[C@H](C(=O)NCC(=O)N[C@@H](CCCCN)C(=O)N[C@@H](CCCCN)C(=O)N[C@H](C(=O)NCC(=O)N[C@@H](CCCCN)C(=O)N[C@H](C(=O)N[C@@H](C)C(=O)N[C@@H](CC(C)C)C(=O)N[C@@H](CC(N)=O)C(=O)N[C@@H](C)C(=O)N[C@@H](Cc1ccc(O)cc1)C(=O)N[C@@H](CC(C)C)C(N)=O)C(C)C)C(C)C)C(C)C — result for “chronic toxic concentration”: 5 µM (zebrafish embryos 4 hpf, E3 medium; 24 h).
The tissue distribution of CSCC[C@H](N)C(=O)N[C@@H](C)C(=O)N[C@@H](CCCNC(=N)N)C(=O)N[C@@H](CCCNC(=N)N)C(=O)N[C@@H](CC(=O)O)C(=O)N[C@@H](CCCCN)C(=O)N[C@H](C(=O)N[C@@H](CC(=O)O)C(=O)N[C@@H](Cc1ccccc1)C(=O)N[C@@H](C)C(=O)N[C@@H](CCCNC(=N)N)C(=O)N[C@@H](CCCNC(=N)N)C(=O)N[C@@H](CCCNC(=N)N)C(=O)N[C@@H](CCCNC(=N)N)C(=O)NCCCCCC(=O)NCCCCC(NC(=O)CCCCCNC(=O)[C@H](CCCNC(=N)N)NC(=O)[C@H](CCCNC(=N)N)NC(=O)[C@H](CCCNC(=N)N)NC(=O)[C@H](CCCNC(=N)N)NC(=O)[C@H](C)NC(=O)[C@H](Cc1ccccc1)NC(=O)[C@H](CC(=O)O)NC(=O)[C@@H](NC(=O)[C@H](CCCCN)NC(=O)[C@H](CC(=O)O)NC(=O)[C@H](CCCNC(=N)N)NC(=O)[C@H](CCCNC(=N)N)NC(=O)[C@H](C)NC(=O)[C@@H](N)CCSC)[C@@H](C)O)C(=O)NCCCCC(NC(=O)C(CCCCNC(=O)CCCCCNC(=O)[C@H](CCCNC(=N)N)NC(=O)[C@H](CCCNC(=N)N)NC(=O)[C@H](CCCNC(=N)N)NC(=O)[C@H](CCCNC(=N)N)NC(=O)[C@H](C)NC(=O)[C@H](Cc1ccccc1)NC(=O)[C@H](CC(=O)O)NC(=O)[C@@H](NC(=O)[C@H](CCCCN)NC(=O)[C@H](CC(=O)O)NC(=O)[C@H](CCCNC(=N)N)NC(=O)[C@H](CCCNC(=N)N)NC(=O)[C@H](C)NC(=O)[C@@H](N)CCSC)[C@@H](C)O)NC(=O)CCCCCNC(=O)[C@H](CCCNC(=N)N)NC(=O)[C@H](CCCNC(=N)N)NC(=O)[C@H](CCCNC(=N)N)NC(=O)[C@H](CCCNC(=N)N)NC(=O)[C@H](C)NC(=O)[C@H](Cc1ccccc1)NC(=O)[C@H](CC(=O)O)NC(=O)[C@@H](NC(=O)[C@H](CCCCN)NC(=O)[C@H](CC(=O)O)NC(=O)[C@H](CCCNC(=N)N)NC(=O)[C@H](CCCNC(=N)N)NC(=O)[C@H](C)NC(=O)[C@@H](N)CCSC)[C@@H](C)O)C(N)=O)[C@@H](C)O (stereo partly drawn) is reported as 0.33% and 0.22% and 0.36% (C57BL/6 mouse female, ovary; dose not given, 6 h; baseline: total).
For CC[C@H](C)[C@H](NC(=O)[C@H](Cc1c[nH]c2ccccc12)NC(=O)[C@H](Cc1ccc(O)cc1)NC(=O)[C@H](CCCCN)NC(=O)[C@H](CC(C)C)NC(=O)[C@@H](N)CO)C(=O)N[C@@H](CCCNC(=N)N)C(=O)N[C@@H](Cc1ccc(O)cc1)C(=O)N[C@@H](CCCCN)C(=O)N[C@@H](CCCNC(=N)N)C(=O)N[C@@H](CCC(N)=O)C(=O)NCC(=O)N[C@@H](C)C(=O)N[C@@H](C)C(=O)N[C@@H](CCCNC(=N)N)C(=O)N[C@@H](Cc1ccccc1)C(N)=O, “elution acetonitrile content” read 43.7% (reversed-phase UPLC; C18 column, TFA).
For CN1Cc2cc(Cl)ccc2-n2c(nnc2C2CCN(c3cccc(F)n3)CC2)C1, the AUC was 3.86 ng·h/mL (Sprague-Dawley rats male, cortex; intravenous, 0.03 mg/kg).
COc1ccc(CNc2ccc3c(c2)S(=O)(=O)C=C3)cc1: “red cell distribution width CV” 0.15% (male C57BL/6 mice, blood; intraperitoneal, 10 mg/kg, day 8, group average).
With C=Cc1c(C)c2cc3nc(c(CC(=O)[O-])c4[n-]c(cc5nc(cc1[n-]2)C(C)=C5CC)c(C)c4C(=O)[O-])C(CCC(=O)[O-])C3C.[Cu+2].[Na+].[Na+].[Na+] (stereo not drawn) the serum creatinine was 0.45 ± 0.14 mg/dL (Wistar rat, female; oral, 250 mg/kg daily, 28 days).
Cc1cccc(-c2cccc(C)n2)n1.Cc1cccc(-c2cccc(C)n2)n1.F[P-](F)(F)(F)(F)F.F[P-](F)(F)(F)(F)F.[Ru+2].c1ccc2c(-c3nc4c5cccnc5c5ncccc5c4[nH]3)cccc2c1 — result for “singlet oxygen quantum yield”: 0 (aerated acetonitrile; 298 K; baseline: Ru(bpy)3(PF6)2).
With CCc1nn(C)c2nc(-c3ccc(C(=O)O)cc3)nc(NCc3ccccc3)c12 the concentration was 779 ng/mL (male CD-1 mouse, plasma; oral, 10 mg/kg, 1 h).
CC(C)[C@@H]1NC(=O)CNC(=O)[C@H](CC(N)=O)NC(=O)[C@H](CCCNC(=N)N)NC(=O)[C@H](Cc2ccc(O)cc2)NC(=O)[C@H](C(C)C)NC(=O)[C@@H](NC(=O)[C@@H](NC(=O)[C@H](CC(N)=O)NC(=O)[C@H](Cc2c[nH]c3ccccc23)NC(=O)[C@H](C)NC(=O)[C@H](Cc2ccccc2)NC(=O)CNC(=O)[C@H](CCCCN)NC(=O)[C@H](Cc2ccccc2)NC(=O)[C@H](Cc2ccccc2)NC(=O)[C@H](CCCCN)NC(=O)OCC2c3ccccc3-c3ccccc32)C(C)C)CSSC[C@@H](C(=O)N[C@@H](Cc2c[nH]cn2)C(=O)N[C@@H](CCCNC(=N)N)C(=O)N[C@@H](CCCNC(=N)N)C(=O)N[C@@H](C)C(=O)N[C@@H](CC(N)=O)C(N)=O)NC(=O)[C@H](C(C)C)NC(=O)[C@H](CCCNC(=N)N)NC1=O has a lymphocytes of 72.9 ± 2.34% (ICR mouse, blood; intramammary, 10 mg/kg, day 5, 3 d dosing).
For O=C1NC2(CC2)COc2ncc(F)cc2[C@H]2COCCN2c2ccn3ncc1c3n2, the basophil percentage was 0.12 ± 0.08% (Sprague-Dawley rats, male, blood; oral, 20 mg/kg/day, end of treatment, 4-week subacute toxicity).
The tissue uptake of CC[C@H](C)[C@H](NC(=O)[C@H](CCCCN)NC(=O)CNC(=O)[C@H](CC(C)C)NC(=O)[C@H](Cc1ccccc1)NC(=O)[C@H](CCCCN)NC(=O)[C@H](CO)NC(=O)[C@H](Cc1ccccc1)NC(=O)[C@H](Cc1c[nH]c2ccccc12)NC(=O)[C@H](CCC(N)=O)NC(=O)[C@@H](NC(=O)[C@H](Cc1ccccc1)NC(=O)CCCCCNC(=O)CN1CCN(CC(=O)O)CCN(CC(=O)O)CCN(CC(=O)O)CC1)C(C)C)C(=O)N[C@@H](CCC(=O)O)C(=O)N1CCC[C@H]1C(=O)N[C@@H](CC(=O)O)C(=O)N[C@H](C(=O)N[C@@H](CO)C(=O)N[C@@H](CCC(N)=O)C(=O)N[C@H](C(=O)N[C@@H](CCC(N)=O)C(=O)N[C@@H](CC(=O)O)C(=O)N1CCC[C@H]1C(=O)N[C@@H](CC(N)=O)C(=O)N[C@@H](CC(=O)O)C(=O)N[C@@H](CCC(N)=O)C(=O)N[C@@H](Cc1ccc(O)cc1)C(=O)N[C@@H](CCC(=O)O)C(=O)N1CCC[C@H]1C(=O)N[C@@H](Cc1ccccc1)C(=O)O)C(C)C)C(C)C [copper-64 labelled] is reported as 0.97 ± 0.1 %ID/g (GZMB-/- mice, CT26 tumour-bearing, heart; 2 h, vehicle-treated).
The AUC(0-inf) of Cn1nc(NS(C)(=O)=O)c2c(Cl)ccc(-n3c([C@H](Cc4cc(F)cc(F)c4)NC(=O)Cn4nc(C(F)F)c5c4C(F)(F)[C@@H]4C[C@H]54)nc4nc(OCCC(F)(F)F)ccc4c3=O)c21 is reported as 36300 ng·h/mL (human, plasma; oral, 1875 mg single dose, powder in bottle, geometric mean).

Excerpt of the above:
The tissue distribution of CSCC[C@H](N)C(=O)N[C@@H](C)C(=O)N[C@@H](CCCNC(=N)N)C(=O)N[C@@H](CCCNC(=N)N)C(=O)N[C@@H](CC(=O)O)C(=O)N[C@@H](CCCCN)C(=O)N[C@H](C(=O)N[C@@H](CC(=O)O)C(=O)N[C@@H](Cc1ccccc1)C(=O)N[C@@H](C)C(=O)N[C@@H](CCCNC(=N)N)C(=O)N[C@@H](CCCNC(=N)N)C(=O)N[C@@H](CCCNC(=N)N)C(=O)N[C@@H](CCCNC(=N)N)C(=O)NCCCCCC(=O)NCCCCC(NC(=O)CCCCCNC(=O)[C@H](CCCNC(=N)N)NC(=O)[C@H](CCCNC(=N)N)NC(=O)[C@H](CCCNC(=N)N)NC(=O)[C@H](CCCNC(=N)N)NC(=O)[C@H](C)NC(=O)[C@H](Cc1ccccc1)NC(=O)[C@H](CC(=O)O)NC(=O)[C@@H](NC(=O)[C@H](CCCCN)NC(=O)[C@H](CC(=O)O)NC(=O)[C@H](CCCNC(=N)N)NC(=O)[C@H](CCCNC(=N)N)NC(=O)[C@H](C)NC(=O)[C@@H](N)CCSC)[C@@H](C)O)C(=O)NCCCCC(NC(=O)C(CCCCNC(=O)CCCCCNC(=O)[C@H](CCCNC(=N)N)NC(=O)[C@H](CCCNC(=N)N)NC(=O)[C@H](CCCNC(=N)N)NC(=O)[C@H](CCCNC(=N)N)NC(=O)[C@H](C)NC(=O)[C@H](Cc1ccccc1)NC(=O)[C@H](CC(=O)O)NC(=O)[C@@H](NC(=O)[C@H](CCCCN)NC(=O)[C@H](CC(=O)O)NC(=O)[C@H](CCCNC(=N)N)NC(=O)[C@H](CCCNC(=N)N)NC(=O)[C@H](C)NC(=O)[C@@H](N)CCSC)[C@@H](C)O)NC(=O)CCCCCNC(=O)[C@H](CCCNC(=N)N)NC(=O)[C@H](CCCNC(=N)N)NC(=O)[C@H](CCCNC(=N)N)NC(=O)[C@H](CCCNC(=N)N)NC(=O)[C@H](C)NC(=O)[C@H](Cc1ccccc1)NC(=O)[C@H](CC(=O)O)NC(=O)[C@@H](NC(=O)[C@H](CCCCN)NC(=O)[C@H](CC(=O)O)NC(=O)[C@H](CCCNC(=N)N)NC(=O)[C@H](CCCNC(=N)N)NC(=O)[C@H](C)NC(=O)[C@@H](N)CCSC)[C@@H](C)O)C(N)=O)[C@@H](C)O (stereo partly drawn) is reported as 0.33% and 0.22% and 0.36% (C57BL/6 mouse female, ovary; dose not given, 6 h; baseline: total).
For CC[C@H](C)[C@H](NC(=O)[C@H](Cc1c[nH]c2ccccc12)NC(=O)[C@H](Cc1ccc(O)cc1)NC(=O)[C@H](CCCCN)NC(=O)[C@H](CC(C)C)NC(=O)[C@@H](N)CO)C(=O)N[C@@H](CCCNC(=N)N)C(=O)N[C@@H](Cc1ccc(O)cc1)C(=O)N[C@@H](CCCCN)C(=O)N[C@@H](CCCNC(=N)N)C(=O)N[C@@H](CCC(N)=O)C(=O)NCC(=O)N[C@@H](C)C(=O)N[C@@H](C)C(=O)N[C@@H](CCCNC(=N)N)C(=O)N[C@@H](Cc1ccccc1)C(N)=O, “elution acetonitrile content” read 43.7% (reversed-phase UPLC; C18 column, TFA).
